Results of several laboratories.
Every numbered part comes from another study and shows a few of its results, in no order.
Sequence of UniProt Q9UM73 (whole entry, unmodified, looked up): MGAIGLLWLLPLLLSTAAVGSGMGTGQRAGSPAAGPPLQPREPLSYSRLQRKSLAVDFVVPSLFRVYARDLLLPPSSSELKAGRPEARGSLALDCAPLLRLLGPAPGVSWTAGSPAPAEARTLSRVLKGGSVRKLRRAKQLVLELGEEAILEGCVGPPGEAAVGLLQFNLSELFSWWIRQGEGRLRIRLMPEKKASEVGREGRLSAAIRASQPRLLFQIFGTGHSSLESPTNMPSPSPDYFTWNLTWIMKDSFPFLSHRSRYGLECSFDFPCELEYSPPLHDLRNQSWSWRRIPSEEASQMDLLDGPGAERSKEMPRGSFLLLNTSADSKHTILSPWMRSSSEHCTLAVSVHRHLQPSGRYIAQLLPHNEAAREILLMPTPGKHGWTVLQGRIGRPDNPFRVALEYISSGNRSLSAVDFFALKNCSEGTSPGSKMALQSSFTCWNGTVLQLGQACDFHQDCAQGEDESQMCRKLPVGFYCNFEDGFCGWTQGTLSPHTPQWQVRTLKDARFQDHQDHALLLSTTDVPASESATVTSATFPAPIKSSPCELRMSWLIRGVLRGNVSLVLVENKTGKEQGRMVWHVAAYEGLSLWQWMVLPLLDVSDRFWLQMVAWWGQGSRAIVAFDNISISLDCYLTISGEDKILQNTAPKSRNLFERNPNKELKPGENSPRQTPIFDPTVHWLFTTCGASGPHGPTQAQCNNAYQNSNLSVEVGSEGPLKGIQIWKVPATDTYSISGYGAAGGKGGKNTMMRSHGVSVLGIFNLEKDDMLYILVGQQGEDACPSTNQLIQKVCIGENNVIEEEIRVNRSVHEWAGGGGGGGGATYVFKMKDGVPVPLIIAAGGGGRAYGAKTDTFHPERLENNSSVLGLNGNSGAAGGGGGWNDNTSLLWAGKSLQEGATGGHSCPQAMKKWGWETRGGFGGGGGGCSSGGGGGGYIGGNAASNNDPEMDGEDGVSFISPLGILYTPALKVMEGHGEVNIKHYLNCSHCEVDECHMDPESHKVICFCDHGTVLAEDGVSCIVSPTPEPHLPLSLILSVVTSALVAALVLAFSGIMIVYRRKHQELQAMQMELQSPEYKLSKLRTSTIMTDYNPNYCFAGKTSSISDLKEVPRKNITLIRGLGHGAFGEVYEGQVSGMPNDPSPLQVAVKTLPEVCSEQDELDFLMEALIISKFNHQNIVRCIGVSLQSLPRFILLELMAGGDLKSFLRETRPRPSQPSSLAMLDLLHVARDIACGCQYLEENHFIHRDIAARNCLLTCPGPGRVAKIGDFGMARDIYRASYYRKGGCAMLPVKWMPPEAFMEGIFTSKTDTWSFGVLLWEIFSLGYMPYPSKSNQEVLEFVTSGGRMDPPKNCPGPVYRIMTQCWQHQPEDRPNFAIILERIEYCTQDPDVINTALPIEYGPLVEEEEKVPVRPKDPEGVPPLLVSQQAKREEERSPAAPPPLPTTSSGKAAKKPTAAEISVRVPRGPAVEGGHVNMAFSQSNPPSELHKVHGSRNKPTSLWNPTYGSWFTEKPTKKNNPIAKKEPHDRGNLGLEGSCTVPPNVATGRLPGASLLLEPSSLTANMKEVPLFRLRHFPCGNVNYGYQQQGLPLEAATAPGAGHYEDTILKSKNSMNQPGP
Sequence of UniProt Q13555 (whole entry, looked up): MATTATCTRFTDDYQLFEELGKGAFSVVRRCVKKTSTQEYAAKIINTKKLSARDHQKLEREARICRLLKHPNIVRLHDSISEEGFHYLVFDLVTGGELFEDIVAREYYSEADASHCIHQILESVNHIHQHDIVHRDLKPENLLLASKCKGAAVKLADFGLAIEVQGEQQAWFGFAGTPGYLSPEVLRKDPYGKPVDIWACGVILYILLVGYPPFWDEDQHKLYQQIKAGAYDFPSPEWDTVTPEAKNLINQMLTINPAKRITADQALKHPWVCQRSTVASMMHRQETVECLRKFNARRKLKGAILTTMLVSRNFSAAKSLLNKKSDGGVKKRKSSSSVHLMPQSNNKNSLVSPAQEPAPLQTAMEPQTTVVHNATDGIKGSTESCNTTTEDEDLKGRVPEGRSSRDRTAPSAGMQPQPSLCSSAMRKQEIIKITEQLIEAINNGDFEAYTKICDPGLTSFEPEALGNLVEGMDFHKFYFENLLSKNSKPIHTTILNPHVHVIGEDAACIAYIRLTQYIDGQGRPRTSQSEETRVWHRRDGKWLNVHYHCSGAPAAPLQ
Sequence of UniProt P07948 (whole entry, looked up): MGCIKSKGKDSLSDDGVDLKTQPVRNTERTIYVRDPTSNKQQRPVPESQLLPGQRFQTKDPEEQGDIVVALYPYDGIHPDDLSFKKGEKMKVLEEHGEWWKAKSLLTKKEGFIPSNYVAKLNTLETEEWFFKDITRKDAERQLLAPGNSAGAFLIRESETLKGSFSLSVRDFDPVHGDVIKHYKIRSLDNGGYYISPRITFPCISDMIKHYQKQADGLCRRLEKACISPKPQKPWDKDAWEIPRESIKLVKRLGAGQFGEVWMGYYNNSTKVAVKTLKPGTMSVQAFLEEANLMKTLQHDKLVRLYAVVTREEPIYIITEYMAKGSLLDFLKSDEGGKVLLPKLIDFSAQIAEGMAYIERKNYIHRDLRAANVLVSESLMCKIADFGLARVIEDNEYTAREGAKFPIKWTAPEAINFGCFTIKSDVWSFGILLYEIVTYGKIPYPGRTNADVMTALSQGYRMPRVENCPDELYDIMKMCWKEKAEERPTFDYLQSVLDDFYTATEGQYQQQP

Sample 1
SMILES: CC[C@@]1(c2cccc(-c3c(F)cncc3OC)c2)C2=C(Nc3n[nH]cc31)[C@H](F)C(C)(C)CC2=O (single isomer, unassigned)
Tested at: 1 µM
CDC42BPB (Homo sapiens, UniProt Q9Y5S2); kinase binding, KINOMEscan; reference: DMSO control — remaining binding: 100%.
The remaining binding was 92% (EGFR (Homo sapiens, UniProt P00533, del752-759); kinase binding, KINOMEscan; reference: DMSO control).
The remaining binding was 76% (ROCK1 (Homo sapiens, UniProt Q13464); binding, competition with immobilised ligand).
It gave 88% for remaining binding (FLT1 (Homo sapiens, UniProt P17948); kinase binding, KINOMEscan; reference: DMSO control).
For ULK2 (Homo sapiens, UniProt Q8IYT8); binding, competition with immobilised ligand: remaining binding read 72%.
It gave 100% for remaining binding (TNK2 (Homo sapiens, UniProt Q07912); kinase binding, KINOMEscan; reference: DMSO control).
It gave 92% for remaining binding (BRSK2 (Homo sapiens, UniProt Q8IWQ3); kinase binding, KINOMEscan; reference: DMSO control).
It gave 100% for remaining binding (ALK (Homo sapiens, UniProt Q9UM73, L1196M); kinase binding, KINOMEscan; reference: DMSO control).
CDK11A (Homo sapiens, UniProt Q9UQ88); kinase binding, KINOMEscan; reference: DMSO control — remaining binding: 100%.
For MAPK3 (Homo sapiens, UniProt P27361); binding, competition with immobilised ligand: remaining binding read 93%.
CRK2 (Plasmodium falciparum, UniProt P61075); binding, competition with immobilised ligand — remaining binding: 43%.

Sample 2
SMILES: C[C@@H]1CN(c2ccc(-c3cc(C(=O)NCCOCCOCCOCCOCCOCCOCCNC(=O)/C=C/c4[nH]cc(C(=O)N[C@@H](CC(N)=O)c5ccc(F)c(Cl)c5)c4-c4ccc(Cl)cc4F)ccc3F)cc2NC(=O)c2ccc(F)cc2C(F)(F)F)C[C@H](C)N1C
Observed: thermal unfolding
Technique: differential scanning fluorimetry
Tested at: 5.5 µM
Reading: higher = more unfolded
WDR5: WD repeat-containing protein 5 (WDR5, Homo sapiens, UniProt P61964)
DCAF1: DDB1- and CUL4-associated factor 1 (DCAF1, Homo sapiens, UniProt Q9Y4B6)
Sequence of UniProt Q9Y4B6 (whole entry, looked up): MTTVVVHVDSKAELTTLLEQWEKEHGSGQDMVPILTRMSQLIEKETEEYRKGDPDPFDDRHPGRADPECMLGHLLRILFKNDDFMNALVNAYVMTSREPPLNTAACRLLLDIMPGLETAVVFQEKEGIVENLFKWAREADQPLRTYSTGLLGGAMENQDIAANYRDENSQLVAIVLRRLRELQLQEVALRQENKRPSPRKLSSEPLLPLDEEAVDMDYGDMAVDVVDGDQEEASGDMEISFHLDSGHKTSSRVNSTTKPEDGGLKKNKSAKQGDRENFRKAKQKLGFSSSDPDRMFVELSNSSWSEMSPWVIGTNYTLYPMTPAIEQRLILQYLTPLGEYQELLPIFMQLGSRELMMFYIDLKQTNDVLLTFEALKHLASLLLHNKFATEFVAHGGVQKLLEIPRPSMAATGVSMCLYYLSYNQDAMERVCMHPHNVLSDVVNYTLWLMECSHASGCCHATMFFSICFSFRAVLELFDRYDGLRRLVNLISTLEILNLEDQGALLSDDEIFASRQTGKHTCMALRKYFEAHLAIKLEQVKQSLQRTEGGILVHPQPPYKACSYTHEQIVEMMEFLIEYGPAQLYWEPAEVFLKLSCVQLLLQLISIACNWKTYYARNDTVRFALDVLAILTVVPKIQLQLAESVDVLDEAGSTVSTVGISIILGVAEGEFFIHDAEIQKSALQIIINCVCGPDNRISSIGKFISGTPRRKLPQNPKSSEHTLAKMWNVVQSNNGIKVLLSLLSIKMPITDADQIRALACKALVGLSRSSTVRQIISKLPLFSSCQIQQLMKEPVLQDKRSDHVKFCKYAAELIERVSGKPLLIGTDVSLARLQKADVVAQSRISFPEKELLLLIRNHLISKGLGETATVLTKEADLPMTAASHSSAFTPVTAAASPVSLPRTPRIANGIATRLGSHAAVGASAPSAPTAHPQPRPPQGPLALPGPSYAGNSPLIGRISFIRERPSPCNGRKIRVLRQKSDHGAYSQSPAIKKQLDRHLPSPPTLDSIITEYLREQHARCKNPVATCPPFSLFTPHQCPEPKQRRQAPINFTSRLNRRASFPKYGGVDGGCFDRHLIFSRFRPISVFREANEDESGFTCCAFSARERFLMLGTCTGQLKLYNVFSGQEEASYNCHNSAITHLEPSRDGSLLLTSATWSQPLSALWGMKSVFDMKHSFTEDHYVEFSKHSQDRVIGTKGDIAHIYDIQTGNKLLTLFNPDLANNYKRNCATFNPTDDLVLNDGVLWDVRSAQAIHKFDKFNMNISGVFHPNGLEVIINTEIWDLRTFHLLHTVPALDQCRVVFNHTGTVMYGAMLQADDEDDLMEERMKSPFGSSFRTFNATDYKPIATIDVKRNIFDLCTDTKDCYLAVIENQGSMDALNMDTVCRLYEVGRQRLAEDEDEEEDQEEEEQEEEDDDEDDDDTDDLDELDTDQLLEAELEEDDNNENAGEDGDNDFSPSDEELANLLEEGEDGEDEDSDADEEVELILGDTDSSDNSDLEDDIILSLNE
The “SYPRO Orange fluorescence” was 52100 a.u. (WDR5; 75.81 °C).
For DCAF1; 36.2 °C: “SYPRO Orange fluorescence” read 10400 a.u.
It gave 31800 a.u. for “SYPRO Orange fluorescence” (DCAF1; 90.81 °C).
For DCAF1; 27 °C: “SYPRO Orange fluorescence” read 7580 a.u.
WDR5; 80.81 °C — “SYPRO Orange fluorescence”: 65600 a.u.
It gave 14700 a.u. for “SYPRO Orange fluorescence” (WDR5; 45.6 °C).
DCAF1; 46.4 °C — “SYPRO Orange fluorescence”: 15300 a.u.
The “SYPRO Orange fluorescence” was 39500 a.u. (DCAF1; 58.21 °C).
The “SYPRO Orange fluorescence” was 47400 a.u. (DCAF1; 70.81 °C).
It gave 32200 a.u. for “SYPRO Orange fluorescence” (DCAF1; 90.21 °C).

Sample 3
Compound: CNc1ncc2cc(-c3cc(OC)cc(OC)c3Cl)c(=O)n(CCc3ccc(NC(=O)C(C#N)=CC(C)(C)N4CCOCC4)cc3)c2n1
Observed: kinase activity
PIM1 (Homo sapiens, UniProt P11309); 0.1 µM — inhibition: -2%.
The inhibition was -3% (MAPK1 (Homo sapiens, UniProt P28482); 0.1 µM).
MELK (Homo sapiens, UniProt Q14680); 1 µM — inhibition: 16%.
For PAK3 (Homo sapiens, UniProt O75914); 1 µM: inhibition read 8%.
The inhibition was 8% (DYRK1B (Homo sapiens, UniProt Q9Y463); 1 µM).
The inhibition was 44% (KDR (Homo sapiens, UniProt P35968); 0.1 µM).
For PRKG2 (Homo sapiens, UniProt Q13237); 1 µM: inhibition read 1%.
Aurora kinase B (AURKB, Homo sapiens, UniProt Q96GD4); 0.1 µM — inhibition: -2%.
It gave -2% for inhibition (LTK (Homo sapiens, UniProt P29376); 0.1 µM).
The inhibition was 7% (KIT (Homo sapiens, UniProt P10721); 0.1 µM).
It gave -2% for inhibition (CAMK2G (Homo sapiens, UniProt Q13555); 1 µM).
The inhibition was -5% (HIPK1 (Homo sapiens, UniProt Q86Z02); 0.1 µM).
It gave -1% for inhibition (JAK2 (Homo sapiens, UniProt O60674); 0.1 µM).
It gave 4% for inhibition (Tyrosine-protein kinase Lyn, isoform A (LYN, Homo sapiens, UniProt P07948); 0.1 µM).
The inhibition was -3% (STK26 (Homo sapiens, UniProt Q9P289); 0.1 µM).
For TEC (Homo sapiens, UniProt P42680); 1 µM: inhibition read 16%.
For PDGFRB (Homo sapiens, UniProt P09619); 0.1 µM: inhibition read 9%.
The inhibition was 7% (PRKD3 (Homo sapiens, UniProt O94806); 0.1 µM).

Further values, each from its own experiment
For `Cc1ccc(O)c(C)c1-c1cnc2[nH]c(-c3cnc(N4CCC(CN5CCN(c6cc7c(cc6F)c(N6CCC(=O)NC6=O)nn7C)CC5)CC4)nc3)cc2c1C#N`, the AUC(0-t) was 7850 ng·h/mL (female CD-1 mouse, plasma; oral, 20 mg/kg).
`Cc1ccc(O)c(C)c1-c1cnc2[nH]c(-c3cnc(N4CC5(CC(CN6CCN(c7ccc(NC8CCC(=O)NC8=O)cc7F)CC6)C5)C4)nc3)cc2c1C#N` (stereo not shown) gave a plasma clearance of 86.2 mL/min/kg (CD-1 mouse, female, plasma; intravenous, 1 mg/kg).
For `Cc1ccc(O)c(C)c1-c1cnc2[nH]c(-c3cnc(N)nc3)cc2c1C#N`, the binding remaining was 34% (ABL1 phosphorylated human; KINOMEscan; 1000 nM; reference: control).
The plasma clearance of `Cc1ccc(O)c(C)c1-c1cnc2[nH]c(-c3cnc(N4CCC5(CC4)CC(N4CCN(c6ccc(NC7CCC(=O)NC7=O)cc6F)CC4)CO5)nc3)cc2c1C#N` (stereo not shown) is reported as 56.8 mL/min/kg (CD-1 mouse, female, plasma; intravenous, 1 mg/kg).

Repeated from above (further values, each from its own experiment):
For `Cc1ccc(O)c(C)c1-c1cnc2[nH]c(-c3cnc(N4CCC(CN5CCN(c6cc7c(cc6F)c(N6CCC(=O)NC6=O)nn7C)CC5)CC4)nc3)cc2c1C#N`, the AUC(0-t) was 7850 ng·h/mL (female CD-1 mouse, plasma; oral, 20 mg/kg).
`Cc1ccc(O)c(C)c1-c1cnc2[nH]c(-c3cnc(N4CC5(CC(CN6CCN(c7ccc(NC8CCC(=O)NC8=O)cc7F)CC6)C5)C4)nc3)cc2c1C#N` (stereo not shown) gave a plasma clearance of 86.2 mL/min/kg (CD-1 mouse, female, plasma; intravenous, 1 mg/kg).
For `Cc1ccc(O)c(C)c1-c1cnc2[nH]c(-c3cnc(N)nc3)cc2c1C#N`, the binding remaining was 34% (ABL1 phosphorylated human; KINOMEscan; 1000 nM; reference: control).
The plasma clearance of `Cc1ccc(O)c(C)c1-c1cnc2[nH]c(-c3cnc(N4CCC5(CC4)CC(N4CCN(c6ccc(NC7CCC(=O)NC7=O)cc6F)CC4)CO5)nc3)cc2c1C#N` (stereo not shown) is reported as 56.8 mL/min/kg (CD-1 mouse, female, plasma; intravenous, 1 mg/kg).
